Assay results from different studies.
Parts stem from different laboratories: compare values within a part only.

Sample 1
Target: Protein max, full length (MAX, Homo sapiens, UniProt P61244-2, residues 1-151)
Method: protein-binding microarray
Form: double-stranded DNA, one strand shown
Medium: in vitro
Tested at: not given
Notes: k-mer, scored over probes, only values ≥0.25
Direction: higher = stronger binding
Sequence | E-score
GCGTGAAC | 0.345
ACACGATG | 0.296
CACGACCA | 0.276
ACGCTGTC | 0.316
AAACACGC | 0.411
GCACGCAC | 0.368
ACATGCGT | 0.447
CGCGTGAG | 0.406

Sample 2
Target: Ras GTPase-activating protein-binding protein 1, RRM domain (G3BP1, Homo sapiens, UniProt Q13283)
Chain of UniProt Q13283 (whole entry, looked up): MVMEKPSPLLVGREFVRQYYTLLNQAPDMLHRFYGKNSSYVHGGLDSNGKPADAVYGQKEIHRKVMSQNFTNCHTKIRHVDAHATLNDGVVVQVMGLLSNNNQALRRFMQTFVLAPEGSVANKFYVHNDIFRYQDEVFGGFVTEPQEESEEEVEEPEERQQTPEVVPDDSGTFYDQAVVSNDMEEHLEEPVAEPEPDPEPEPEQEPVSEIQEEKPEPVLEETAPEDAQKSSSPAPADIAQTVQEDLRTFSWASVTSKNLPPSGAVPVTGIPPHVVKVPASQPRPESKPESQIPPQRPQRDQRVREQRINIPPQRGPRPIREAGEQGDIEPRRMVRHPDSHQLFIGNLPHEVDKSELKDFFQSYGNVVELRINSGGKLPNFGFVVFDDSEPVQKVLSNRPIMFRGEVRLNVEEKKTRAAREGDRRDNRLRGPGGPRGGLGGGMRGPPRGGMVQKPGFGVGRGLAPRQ
Method: RNA Bind-n-Seq
Form: RNA
Medium: in vitro
Tested at: 1 µM
Notes: whole 134-nt RNA, ends assumed
With: 150 mM KCl
Reference: input library
Direction: higher = stronger binding
Constant ends, left off below: GGGAGUUCUACAGUCCGACGAUC … UGGAAUUCUCGGGUGUCAAGG
Sequence | log2 enrichment
CAAGUCCUGUGCUACACAUCGUAUGUACCGAAUCGGGAGGGAGGGUUUUUUUGGGAAAGUAUUAUGUUACGCCGUUCGGAUCUGCACUUC | 0.64
AGUCCUGUGCUACACAUCGUAUGUACCGAAUCGGAAAAAGGAAAAAAAGGUUUUUGGAAAGUAUUAUGUUACGCCGUUCGGAUCUGCACU | -0.114
UAACUUUAGAGGAGGAUCUGAUGGAUAUGGCAGUGGACGUGGAUUUGGGGAUGGCUAUAAUGGGUAUGGAGGUGGACCUGGAGGUGGCAA | -0.313
UGGCCCUGGUGGCAUGCGGGGAGGAAGAGGUGGCCUCAUGGAUCGUGGUGGUCCCGGUGGAAUGUUCAGAGGGGGCCGUGGUGGAGACAG | 2.47
UGCUGGAGGCAAAAAAUGCCAGCCUGGCGUCGUCCAACAACGACUUGCAGGUGGCCGAGGAGCAGUACCAGAGGCUUAUGGCCAAGGUAG | -0.548
CUCAAGUCCUGUGCUACACAUCGUAUGUACCGAAUCGGAAAGGUUUGGUUUGGAAAGUAUUAUGUUACGCCGUUCGGAUCUGCACUUCCA | -0.258
ACCAUGCAGGUGGGCAUCUUUGGGAAGUGGGGCAAGGGGGGGAUAGGGAGUGGGGUAACACUUUGGGAACAGGUGGUCCCAGGUCGUUUC | 1.03

Sample 3
Target: Interferon regulatory factor 7, full length, phosphomimetic (IRF7, Homo sapiens, UniProt Q92985, residues 1-503, S101K/S471D/S472D/S475D/S476D/S477D/S483D/S484D/S487D)
Chain of UniProt Q92985 (whole entry, unmodified, looked up): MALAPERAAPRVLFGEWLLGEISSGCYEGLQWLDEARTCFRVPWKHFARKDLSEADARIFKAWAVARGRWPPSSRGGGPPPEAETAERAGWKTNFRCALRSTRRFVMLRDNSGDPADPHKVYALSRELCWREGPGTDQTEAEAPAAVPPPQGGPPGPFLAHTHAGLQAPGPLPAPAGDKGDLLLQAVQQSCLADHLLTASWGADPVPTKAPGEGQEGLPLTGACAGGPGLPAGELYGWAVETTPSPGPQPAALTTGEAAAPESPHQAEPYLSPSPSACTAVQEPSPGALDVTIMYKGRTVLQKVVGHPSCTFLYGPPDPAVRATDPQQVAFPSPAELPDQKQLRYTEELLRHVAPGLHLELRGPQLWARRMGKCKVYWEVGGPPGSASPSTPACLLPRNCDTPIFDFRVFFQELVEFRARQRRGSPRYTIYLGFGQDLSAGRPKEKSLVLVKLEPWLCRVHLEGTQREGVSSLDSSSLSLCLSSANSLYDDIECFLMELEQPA
Method: protein-binding microarray
Form: double-stranded DNA, one strand shown
Medium: in vitro
Tested at: 250 nM
Notes: 60-bp whole probe
With: salmon DNA 0.4 mg/ml
Reference: random background probes
Direction: higher = stronger binding
Constant ends, left off below: GCCTAGCAC … GTCTTGATTCGCTTGACGCTGCTG
Sequence | log fluorescence
GACGGTATCGGGTTTCGGGTCGTGCTA | 6.12 z-score
TCAAATATTCATTTTATACTGTGCTAG | 0.742 z-score
TTAGGCTTCGACACTGGGTTAGTGCTA | -0.592 z-score
TCATTTTTATCAAATGTGACTGTGCTA | 0.686 z-score
TTTGGACTGCTTATCCTTTAGTGCTAG | -0.434 z-score
TTAGATTTCAATTTCGATTAGTGCTAG | 2.15 z-score

Further values, each from its own experiment
Molecule | target | assay | system | conditions | how to read | measurement | result
PhoQ, residues 284 288 289 292 302 303 AAQSYM | PhoP, residues 12 14 15 18 19 SYFRT (Escherichia coli, UniProt P23836) | Sort-seq, refers to: YFP reporter | E. coli | PhoQ-PhoP variant library, with: 10 µM Mg2+ | reference: high Mg2+ state, higher = stronger signaling | fold induction | 1.02

Repeated from above (sample 2):
Sequence | log2 enrichment
UGGCCCUGGUGGCAUGCGGGGAGGAAGAGGUGGCCUCAUGGAUCGUGGUGGUCCCGGUGGAAUGUUCAGAGGGGGCCGUGGUGGAGACAG | 2.47
UAACUUUAGAGGAGGAUCUGAUGGAUAUGGCAGUGGACGUGGAUUUGGGGAUGGCUAUAAUGGGUAUGGAGGUGGACCUGGAGGUGGCAA | -0.313
